Assay results from different studies.
Compare with care: the assays were run in different laboratories.
UCHL1: Ubiquitin carboxyl-terminal hydrolase isozyme L1 (UCHL1, Homo sapiens, UniProt P09936)
UniProt P09936, sequence (whole entry, looked up): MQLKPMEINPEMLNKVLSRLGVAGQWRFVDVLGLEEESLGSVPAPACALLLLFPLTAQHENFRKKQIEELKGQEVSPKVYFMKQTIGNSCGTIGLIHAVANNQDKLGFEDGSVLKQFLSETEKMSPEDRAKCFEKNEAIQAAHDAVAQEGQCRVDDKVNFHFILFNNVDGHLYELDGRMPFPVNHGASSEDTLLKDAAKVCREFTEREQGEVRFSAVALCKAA

SMILES	tested on	test	setting	how to read	quantity	value
O=C1NCCc2[nH]c(-c3ccncc3)cc21	OVCAR-4	MTS	NCI60 panel	–	IC50	> 10 µM
COC(=O)/C=C1\C(=O)C=C2C3CC4CC(CCC4(C)N21)C3(C)NC(C)=O (stereo not shown)	OVCAR-4	cell growth	NCI screen	–	IC50	21.1 µM
C#C[C@@]1(O)[C@@H](CO)O[C@@H](n2cc(I)c3c(N)ncnc32)[C@@H]1O	OVCAR-4	SRB	NCI-60 screen	–	TGI	> 100 µM
N.N.O=C([O-])C1(C(=O)[O-])CCC1.[Pt+2]	OVCAR-4	cell viability	–	–	EC50	66.4 µM
Cc1cc(C)n(-c2nc(-c3ccc(Cl)cc3)c3c(NC(=O)c4ccccc4)nnc-3[nH]2)n1	OVCAR-4	SRB	10 µM, NCI60 single-dose screen	relative to: untreated	cell growth	107%
CCCN1CCN(c2ccc3[nH]c(-c4ccc5[nH]c(-c6ccc(OCC)c(OCC)c6)nc5c4)nc3c2)CC1	OVCAR-4	SRB	10 µM, 48 h	–	growth percent	-59.9%
C#C[C@@]1(O)[C@@H](CO)O[C@@H](n2cc(F)c3c(N)ncnc32)[C@@H]1O	OVCAR-4	SRB	NCI-60 screen	–	TGI	8.67 µM
CCOc1ccc(-c2nc3cc(-c4nc5cc(N6CCN(C)CC6)ccc5[nH]4)ccc3[nH]2)cc1OCC	OVCAR-4	SRB	10 µM, 48 h	–	growth percent	7.29%
Cc1cc(C)c(NC(=O)C(C#N)=Cc2cc(F)ccc2F)c(C)c1	UCHL1	covalent, intact protein LC-MS	12.5 µM	–	labelling	33.5%
CCCCN1CCN(c2ccc3[nH]c(-c4ccc5[nH]c(-c6cc(OC)c(OC)c(OC)c6)nc5c4)nc3c2)CC1	OVCAR-4	SRB	10 µM, 48 h	–	growth percent	84.4%
Cn1cncc1C1=CN(c2ncnc3[nH]cnc23)CCS1	OVCAR-4	–	ovarian cancer	–	TGI	> 200 µM
CSc1nc(-c2ccc(Cl)cc2)c2c(NC(=O)c3ccccc3)nnc-2[nH]1	OVCAR-4	SRB	10 µM, NCI60 single-dose screen	relative to: untreated	cell growth	94.6%
CCCCN1CCN(c2ccc3nc(-c4ccc5nc(-c6cc(OC)ccc6OC)[nH]c5c4)[nH]c3c2)CC1	OVCAR-4	SRB	10 µM, 48 h	–	growth percent	92.9%
NNc1nc(-c2ccc(Cl)cc2)c2c(NC(=O)c3ccccc3)nnc-2[nH]1	OVCAR-4	SRB	10 µM, NCI60 single-dose screen	relative to: untreated	cell growth	99.9%
S=C([S][Au-][P+](CCCCCC[P+]([Au-][S]C(=S)n1cccn1)(c1ccccc1)c1ccccc1)(c1ccccc1)c1ccccc1)n1cccn1	OVCAR-4	cell growth, NCI-60 screen	ovarian cancer	–	log10 TGI	> -4
Cc1n[nH]c2nc(-c3ccc(Cl)cc3)c3c(NC(=O)c4ccccc4)nnc-3n12	OVCAR-4	SRB	10 µM, NCI60 single-dose screen	relative to: untreated	cell growth	95.4%
CCCCN1CCN(c2ccc3[nH]c(-c4ccc5[nH]c(-c6ccc(OCC)c(OCC)c6)nc5c4)nc3c2)CC1	OVCAR-4	SRB	10 µM, 48 h	–	growth percent	-77.5%
Cc1cc(-c2ccccc2)n(-c2nc(-c3ccc(Cl)cc3)c3c(NC(=O)c4ccccc4)nnc-3[nH]2)n1	OVCAR-4	SRB	10 µM, NCI60 single-dose screen	relative to: untreated	cell growth	104%
Cc1ccc(C2=NN(C(=O)CCl)C(c3cccs3)C2)o1 (stereo not shown)	UCHL1	covalent, intact protein LC-MS	12.5 µM	–	labelling	16.3%

Some of these lines once more:
SMILES	tested on	test	setting	how to read	quantity	value
C#C[C@@]1(O)[C@@H](CO)O[C@@H](n2cc(I)c3c(N)ncnc32)[C@@H]1O	OVCAR-4	SRB	NCI-60 screen	–	TGI	> 100 µM
